Measurements collected from several papers.
A part holds a random share of what one study measured. Changes are numbered by the printed parent chain.

Block 1 — method: DHFR PCA, deep sequencing; sample: yeast; with: (+)-ABA 0.11 µM; baseline: wild-type fitted maximum; direction: higher = stronger binding; endpoint: relative binding score
Target: ABI1, truncated, D143A, DHFR fusion (Arabidopsis thaliana)
Notes: methotrexate growth selection, single substitutions
Starting sequence: PYL1, truncated, DHFR fusion (Arabidopsis thaliana); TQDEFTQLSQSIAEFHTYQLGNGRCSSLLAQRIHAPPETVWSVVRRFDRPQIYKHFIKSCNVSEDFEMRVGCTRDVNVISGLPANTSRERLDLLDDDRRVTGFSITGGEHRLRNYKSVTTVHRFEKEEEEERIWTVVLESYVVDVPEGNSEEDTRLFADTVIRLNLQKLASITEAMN
W41Y: -12.4%
L29T: -2.33%
L82M: 38.5%
R49H: 5.8%
I57V: 22.1%
V70T: 2.66%
S26F: -1.59%
P146V: 29.6%
G108C: 4.57%
F47D: -7.42%
E64I: 6.29%
V62R: 2.58%
V137K: -4.62%
T39G: -0.747%
N177K: 26.9%

Block 2 — method: RNA Bind-n-Seq; molecule type: RNA; sample: in vitro; concentration: 365 nM; baseline: no-protein control; direction: higher = stronger binding; endpoint: RBNS enrichment (R)
Target: RNA binding protein fox-1 homolog 2, RRM domain, GST-SBP tag (RBFOX2, Homo sapiens, UniProt O43251-10, residues 100-194)
Notes: natural RNA segment, single round, ends assumed
Residues (chain): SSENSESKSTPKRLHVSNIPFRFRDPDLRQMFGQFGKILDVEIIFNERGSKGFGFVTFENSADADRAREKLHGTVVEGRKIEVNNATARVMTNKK
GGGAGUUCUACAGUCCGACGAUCGUGUGGGGGAUAAAACAGGACAGACGACAGGUCCACCCAAGACUGUCAAGGGAUGAGCAUCCCAAACCUGCUCCACAGAGGUAGCUGCGUCCUGAAAAAAAACAGAGCAGUGGAAUUCUCGGGUGCCAA: 0.41
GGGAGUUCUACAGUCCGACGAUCCCAGCUUCCCUGACCGCUGCUGCUCGGGGAGGGCUGGGGCUGGCCGGGGGUCCUGUGGAGGAGUACAUGGAGGACUCCAGGUACAGCGCAGGAGUCACGGCUUUUGUUUUUGGAAUUCUCGGGUGCCAA: 0.267
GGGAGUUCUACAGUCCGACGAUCUUUUAAAGCAUUCUUUGAUACUGUUGCUUUUGCAAUAAAUAUGGAUAAUCUUGGUUAUAAGGGAGUUAAAACAAUGCUGUAAUAAAUAAAGUGCUUCAUGUGAUCAAAAUUGGAAUUCUCGGGUGCCAA: 0.441
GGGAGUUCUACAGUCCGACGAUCAGGACUGGGAGUGAGGGAGCCAGAGGGAGCAGCUCCCCCACCCAUGGCAUCUCUCGCCUCCCUCGCUCGUCUCAGCCCAGCCCUGGAAGACUGAGAAUGUUCCCCCAAAUUGGAAUUCUCGGGUGCCAA: 0.517
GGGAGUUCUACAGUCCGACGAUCGCUUCCUAGUUUACAGCAUGAUGCAAAUGAUUUUCUAACUUAGUGUUAGGAGAAAAUAUUUUCCAUCUUUUAACCUCUUAGUUGUCUAAGAGUUAAAUAUUACUGAAUUUUGGAAUUCUCGGGUGCCAA: 0.504
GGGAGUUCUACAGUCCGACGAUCUGAAGAGAAAUUUGUGUGUCCUUGUUUGUUGCCUGAUCUUAGUUUCAUGGAAGAAAAUGGAAUCUACAGAAUUAUUUUCAAAAAUAAAGUAAAGGCUGAAUUGCUGAAAAUGGAAUUCUCGGGUGCCAA: 0.811
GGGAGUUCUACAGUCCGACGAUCAACUGAUUGUUUUGGAUAACUCAACAUGUUUUUCUUAAAUGCUGUUUUAGUAUUUUCUACCUCUUAAUAAGCACCAUAUUUUAGAUCUUGUAUAAAAAGUUGCCAUCUGCUGGAAUUCUCGGGUGCCAA: 0.328
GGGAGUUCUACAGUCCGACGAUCUUCAGUUGCUCUAAGCACCAGAGGACUUGUUUCAGAAAAGGGGAGUGGGAACGCCCUCGACUUUGCCCUCCUCCGGAGCAUCUCUGGGACGCAGGGAGUCUGGCUAGCGUUGGAAUUCUCGGGUGCCAA: 1.11
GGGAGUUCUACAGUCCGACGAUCGAAUUUUUACAAAUAUAAAAAGGAAAAAGUAUAUUAGUGUAAUUUGUUUAGGAAUAGCUACAUACCGAAGGGCUUCUAUACAUGAAUUCUAGGGGCAAAAGCCUUUUGUAUGGAAUUCUCGGGUGCCAA: 0.809
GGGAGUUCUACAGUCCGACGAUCUUUCCAUUCUAUGAAGGGUGCGUGUUUCUGGUUUCCAGCAGCAGGAUAACAAGUGGGAAUUUACUCACUGACUUCUCAUUUAUCAUAAAAGCUGCAGCACCUUUAUGUACUGGAAUUCUCGGGUGCCAA: 0.289
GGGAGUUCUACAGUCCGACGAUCUUUCUCUACCAAAGAAAAAAUGAGCAGGUUUAGGUUUUUACAUGACUUAUAUACAUUAGAUAAAAGGAGCUGUAUAAUUUAGCAGGAAGGGACUAUGGGAGAAUACUUUAUGGAAUUCUCGGGUGCCAA: 0.629
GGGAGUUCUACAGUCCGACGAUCCUUCCCUCCCUUUACUUCUGUUGCCUUGUGUAUAAAACUGCCCCCAGCUUGCCUAGAGACGUUGCCUUCAUCAGAGAAGACUCCAUUAAUUCAGUGUCCCAAUGGUGUCCUGGAAUUCUCGGGUGCCAA: 1.79

Block 3 — target: CCNF, cyclin fold, Cln2 fusion (human); method: yeast growth competition, sequencing; sample: yeast; notes: weak parent motif; baseline: not given; direction: higher = stronger binding; endpoint: normalised enrichment score
Starting sequence: LLGL2 docking peptide (human); KSLKKSLRQSFRR; partner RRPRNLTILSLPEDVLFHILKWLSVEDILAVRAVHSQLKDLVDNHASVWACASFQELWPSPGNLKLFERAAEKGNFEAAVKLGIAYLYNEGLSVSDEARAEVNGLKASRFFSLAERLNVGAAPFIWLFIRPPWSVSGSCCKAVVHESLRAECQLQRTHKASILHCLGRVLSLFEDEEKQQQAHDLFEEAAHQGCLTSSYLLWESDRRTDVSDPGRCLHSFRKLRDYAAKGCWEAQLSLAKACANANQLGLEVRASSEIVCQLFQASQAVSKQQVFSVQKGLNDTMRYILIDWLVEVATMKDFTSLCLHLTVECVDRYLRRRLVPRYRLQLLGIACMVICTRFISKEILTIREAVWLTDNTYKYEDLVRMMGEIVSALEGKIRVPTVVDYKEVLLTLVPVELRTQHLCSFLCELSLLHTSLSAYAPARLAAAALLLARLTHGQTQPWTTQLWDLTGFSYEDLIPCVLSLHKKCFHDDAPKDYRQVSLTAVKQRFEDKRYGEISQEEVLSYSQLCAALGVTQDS
KSAKKSLRQSFRR [L3A]: 0.656
KSLAKSLRQSFRR [K4A]: 1.3
KSLKASLRQSFRR [K5A]: 1.07
KSLKKSLRQSFRA [R13A]: 0.875
ASLKKSLRQSFRR [K1A]: 0.685
KSLKKALRQSFRR [S6A]: 0.755

Block 4 — method: protein binding microarray; molecule type: double-stranded DNA, one strand shown; sample: in vitro; concentration: not given; baseline: not given; direction: higher = stronger binding; endpoint: E-score
Target: Histone acetyltransferase KAT6A, winged helix 2, GST fusion (KAT6A, Homo sapiens, UniProt Q92794, residues 85-181)
Notes: 8-mer, flanks averaged, mean of 2 arrays, mostly near background
Construct (chain): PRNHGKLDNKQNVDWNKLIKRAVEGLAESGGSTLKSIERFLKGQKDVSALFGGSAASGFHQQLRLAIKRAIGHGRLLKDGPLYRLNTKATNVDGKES
AAGCGGTG: -0.0453
CCATTTAA: 0.00777
ATCTGCAA: 0.00024
CTCACGGA: 0.0129
GAGACTAC: -0.142
CCCGCGAC: 0.219
GATACCAA: -0.103
CCCGACGC: 0.136
GGAACGTA: -0.268
AAGTAATC: -0.0507
AGGCTATA: 0.0101
CGTAGTTC: -0.0746
ACACGTGC: -0.106
AATGACAC: -0.215
CTGCCCAC: -0.0456
CCTCGTAG: -0.0554
GCTGTAAA: 0.114
CAATGCAA: -0.016
AAACTGAG: -0.036
CGATTGTC: 0.115

Block 5 — method: universal PBM; molecule type: double-stranded DNA, one strand shown; sample: in vitro; concentration: not given; direction: higher = stronger binding; endpoint: E-score
Target: Sal-like protein 4, full length isoform B (SALL4, Homo sapiens, UniProt Q9UJQ4-2, residues 1-616)
Notes: 8-mer, flanks averaged, mean of replicates
ACTCGGTG: -0.18
GTATACGA: 0.0791
AAGTCTAC: -0.0428
AGAGTGCG: -0.14
GTTCATCA: 0.0819
CCTGCTGC: -0.179
CCTTGTGA: 0.0134
GAGCAATA: 0.207
ACGCGAGC: -0.234
CGCTTCAC: -0.142
TACGAAAA: 0.304
CGTTGTAC: 0.187
GTCCAGCA: -0.0987
AGGTTCCC: -0.24
ACCTACCA: -0.0836
GATCCCCA: -0.226
CCAGCGAC: -0.355
AACTAGCC: -0.0182
CTCTACGA: 0.052
CATGCCTA: -0.0184
CGGAGTAC: -0.22
GTGGACCA: -0.121
CATACGAA: 0.187
TATAGGGA: 0.0988
AGAAAGGC: -0.0116

Single results of other studies
PhoQ, residues 284 288 289 292 302 303 ASTSDA — fold induction (PhoP, residues 12 14 15 18 19 NFCKL (Escherichia coli, UniProt P23836); Sort-seq, measured: YFP reporter; E. coli; PhoQ-PhoP variant library, with: 10 µM Mg2+; baseline: high Mg2+ state, higher = stronger signaling): 0.753

A few entries again (block 1):
L29T: -2.33%
L82M: 38.5%
R49H: 5.8%
I57V: 22.1%
V70T: 2.66%
S26F: -1.59%
P146V: 29.6%
G108C: 4.57%
F47D: -7.42%
E64I: 6.29%
